Measurements collected from several papers.
Every numbered part comes from another study and shows a few of its results, in no order.
UniProt O95835, sequence (whole entry, looked up): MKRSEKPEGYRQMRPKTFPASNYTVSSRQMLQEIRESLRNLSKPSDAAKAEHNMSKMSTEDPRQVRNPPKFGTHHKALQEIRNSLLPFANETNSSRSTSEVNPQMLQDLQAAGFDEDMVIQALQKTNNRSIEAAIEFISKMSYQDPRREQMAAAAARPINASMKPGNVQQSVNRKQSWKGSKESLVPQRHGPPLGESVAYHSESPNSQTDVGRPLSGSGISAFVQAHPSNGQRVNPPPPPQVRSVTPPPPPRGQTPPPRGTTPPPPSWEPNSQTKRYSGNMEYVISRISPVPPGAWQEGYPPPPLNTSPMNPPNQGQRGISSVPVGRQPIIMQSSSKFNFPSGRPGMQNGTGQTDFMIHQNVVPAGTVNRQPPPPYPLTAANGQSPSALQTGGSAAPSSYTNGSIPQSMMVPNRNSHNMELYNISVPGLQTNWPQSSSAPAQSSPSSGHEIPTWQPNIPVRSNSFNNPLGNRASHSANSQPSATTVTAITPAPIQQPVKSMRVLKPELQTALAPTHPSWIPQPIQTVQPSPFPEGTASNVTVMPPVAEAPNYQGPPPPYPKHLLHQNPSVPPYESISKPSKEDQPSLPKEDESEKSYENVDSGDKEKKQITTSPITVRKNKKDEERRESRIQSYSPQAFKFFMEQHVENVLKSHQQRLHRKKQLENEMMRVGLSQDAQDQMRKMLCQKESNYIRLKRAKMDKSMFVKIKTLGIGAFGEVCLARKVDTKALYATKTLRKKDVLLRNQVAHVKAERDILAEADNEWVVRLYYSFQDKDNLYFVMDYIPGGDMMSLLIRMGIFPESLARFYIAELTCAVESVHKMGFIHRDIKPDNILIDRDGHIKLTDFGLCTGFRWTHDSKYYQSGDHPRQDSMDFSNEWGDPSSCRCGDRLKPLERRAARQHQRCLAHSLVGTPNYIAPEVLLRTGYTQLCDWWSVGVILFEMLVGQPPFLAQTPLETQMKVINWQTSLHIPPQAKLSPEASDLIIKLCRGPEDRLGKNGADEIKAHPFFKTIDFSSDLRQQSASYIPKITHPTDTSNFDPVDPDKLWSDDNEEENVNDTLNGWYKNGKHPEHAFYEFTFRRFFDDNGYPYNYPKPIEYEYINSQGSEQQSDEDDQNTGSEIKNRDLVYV
UniProt Q9BUB5, sequence (whole entry, looked up): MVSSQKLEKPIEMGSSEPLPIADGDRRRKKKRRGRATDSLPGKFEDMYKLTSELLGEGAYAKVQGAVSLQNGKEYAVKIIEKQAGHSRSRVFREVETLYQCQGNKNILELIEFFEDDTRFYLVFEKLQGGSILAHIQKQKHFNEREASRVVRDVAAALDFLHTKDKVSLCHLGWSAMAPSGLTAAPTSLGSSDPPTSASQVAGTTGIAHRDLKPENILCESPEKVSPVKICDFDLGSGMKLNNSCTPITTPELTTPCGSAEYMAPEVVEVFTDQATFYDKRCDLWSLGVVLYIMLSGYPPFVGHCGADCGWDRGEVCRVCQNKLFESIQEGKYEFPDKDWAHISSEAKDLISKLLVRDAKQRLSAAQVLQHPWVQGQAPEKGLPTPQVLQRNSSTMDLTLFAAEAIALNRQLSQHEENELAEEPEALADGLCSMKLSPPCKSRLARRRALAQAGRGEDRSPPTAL
UniProt Q14004, sequence (whole entry, looked up): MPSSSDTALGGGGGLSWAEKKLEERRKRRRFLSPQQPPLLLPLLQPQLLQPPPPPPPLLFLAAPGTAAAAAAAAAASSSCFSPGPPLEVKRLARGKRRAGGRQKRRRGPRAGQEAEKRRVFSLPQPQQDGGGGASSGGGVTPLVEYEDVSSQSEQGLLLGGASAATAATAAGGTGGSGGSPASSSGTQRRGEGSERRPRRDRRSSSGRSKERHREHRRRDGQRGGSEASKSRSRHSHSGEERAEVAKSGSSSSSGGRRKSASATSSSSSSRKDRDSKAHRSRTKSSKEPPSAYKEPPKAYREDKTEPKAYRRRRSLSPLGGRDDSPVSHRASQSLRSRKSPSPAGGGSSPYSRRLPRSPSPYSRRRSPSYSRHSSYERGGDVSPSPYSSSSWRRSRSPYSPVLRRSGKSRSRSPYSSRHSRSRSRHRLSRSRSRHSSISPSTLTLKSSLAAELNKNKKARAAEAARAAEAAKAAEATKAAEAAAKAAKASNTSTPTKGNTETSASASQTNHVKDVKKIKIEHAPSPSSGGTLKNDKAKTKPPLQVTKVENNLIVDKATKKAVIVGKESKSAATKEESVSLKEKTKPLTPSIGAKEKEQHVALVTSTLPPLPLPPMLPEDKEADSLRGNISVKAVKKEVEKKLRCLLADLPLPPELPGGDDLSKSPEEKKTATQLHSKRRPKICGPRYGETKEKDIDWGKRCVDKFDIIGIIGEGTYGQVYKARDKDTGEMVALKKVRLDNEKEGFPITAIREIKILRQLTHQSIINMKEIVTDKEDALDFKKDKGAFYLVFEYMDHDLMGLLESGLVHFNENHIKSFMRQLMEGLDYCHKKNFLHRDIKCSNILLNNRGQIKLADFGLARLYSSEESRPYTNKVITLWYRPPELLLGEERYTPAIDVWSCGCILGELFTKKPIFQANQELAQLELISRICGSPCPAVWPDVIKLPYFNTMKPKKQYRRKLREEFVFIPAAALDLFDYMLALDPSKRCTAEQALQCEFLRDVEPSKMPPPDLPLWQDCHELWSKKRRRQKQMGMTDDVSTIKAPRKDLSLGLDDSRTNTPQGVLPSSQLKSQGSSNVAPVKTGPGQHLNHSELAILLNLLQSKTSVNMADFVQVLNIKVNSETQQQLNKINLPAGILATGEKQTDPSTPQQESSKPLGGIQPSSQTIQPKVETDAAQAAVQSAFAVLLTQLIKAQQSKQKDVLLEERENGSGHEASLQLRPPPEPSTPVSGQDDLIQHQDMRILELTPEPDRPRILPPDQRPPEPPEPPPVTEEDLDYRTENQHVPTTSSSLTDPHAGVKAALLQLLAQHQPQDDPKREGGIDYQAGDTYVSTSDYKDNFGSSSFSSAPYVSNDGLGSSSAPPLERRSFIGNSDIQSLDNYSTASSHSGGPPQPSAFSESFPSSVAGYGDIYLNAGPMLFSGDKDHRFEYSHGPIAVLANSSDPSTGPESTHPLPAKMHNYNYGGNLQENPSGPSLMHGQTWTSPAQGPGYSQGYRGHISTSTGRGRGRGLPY
UniProt Q13233, sequence (whole entry, looked up): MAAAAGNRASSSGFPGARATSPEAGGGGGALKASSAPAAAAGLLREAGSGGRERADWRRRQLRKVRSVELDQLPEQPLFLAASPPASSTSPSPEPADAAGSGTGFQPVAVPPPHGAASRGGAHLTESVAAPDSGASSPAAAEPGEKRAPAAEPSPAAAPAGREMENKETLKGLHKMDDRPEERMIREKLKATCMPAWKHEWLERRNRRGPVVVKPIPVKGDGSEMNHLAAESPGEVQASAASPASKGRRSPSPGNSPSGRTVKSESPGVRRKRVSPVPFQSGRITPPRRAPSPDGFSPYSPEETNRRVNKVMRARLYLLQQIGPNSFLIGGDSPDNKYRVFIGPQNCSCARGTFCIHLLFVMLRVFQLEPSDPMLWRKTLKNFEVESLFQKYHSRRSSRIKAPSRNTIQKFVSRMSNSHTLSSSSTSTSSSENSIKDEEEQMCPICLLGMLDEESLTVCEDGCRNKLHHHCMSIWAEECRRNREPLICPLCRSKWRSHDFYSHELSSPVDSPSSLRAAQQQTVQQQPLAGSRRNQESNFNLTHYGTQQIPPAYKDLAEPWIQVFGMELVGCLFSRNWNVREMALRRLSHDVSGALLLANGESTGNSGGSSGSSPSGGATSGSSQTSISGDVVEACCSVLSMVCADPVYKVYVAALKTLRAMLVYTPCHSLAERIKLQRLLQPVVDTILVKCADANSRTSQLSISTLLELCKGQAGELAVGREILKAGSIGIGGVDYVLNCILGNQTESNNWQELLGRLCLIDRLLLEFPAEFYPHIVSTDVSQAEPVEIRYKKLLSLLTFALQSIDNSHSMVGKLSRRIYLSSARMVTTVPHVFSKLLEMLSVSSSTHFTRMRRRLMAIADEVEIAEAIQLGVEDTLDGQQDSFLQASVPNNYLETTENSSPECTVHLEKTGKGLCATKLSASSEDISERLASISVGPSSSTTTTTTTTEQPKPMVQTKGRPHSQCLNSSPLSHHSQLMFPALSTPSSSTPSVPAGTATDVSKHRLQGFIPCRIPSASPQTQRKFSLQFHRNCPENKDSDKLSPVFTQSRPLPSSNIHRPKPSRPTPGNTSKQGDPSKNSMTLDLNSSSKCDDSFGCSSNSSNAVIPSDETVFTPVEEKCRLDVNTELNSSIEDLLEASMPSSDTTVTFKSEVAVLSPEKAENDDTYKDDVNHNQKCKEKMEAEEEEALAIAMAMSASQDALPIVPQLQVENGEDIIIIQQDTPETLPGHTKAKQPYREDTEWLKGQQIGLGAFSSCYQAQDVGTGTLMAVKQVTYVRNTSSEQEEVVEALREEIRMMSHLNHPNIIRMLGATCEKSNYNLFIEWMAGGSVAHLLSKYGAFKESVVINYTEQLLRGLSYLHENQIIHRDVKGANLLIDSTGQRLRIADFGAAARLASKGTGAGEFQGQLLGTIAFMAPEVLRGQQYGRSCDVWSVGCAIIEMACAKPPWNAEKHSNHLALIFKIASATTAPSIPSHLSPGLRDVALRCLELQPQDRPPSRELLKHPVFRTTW

Study 1 — mode: agonist; endpoint: Emax
Target: Beta-1 adrenergic receptor (ADRB1, Homo sapiens, UniProt P08588)
UniProt P08588, sequence (whole entry, looked up): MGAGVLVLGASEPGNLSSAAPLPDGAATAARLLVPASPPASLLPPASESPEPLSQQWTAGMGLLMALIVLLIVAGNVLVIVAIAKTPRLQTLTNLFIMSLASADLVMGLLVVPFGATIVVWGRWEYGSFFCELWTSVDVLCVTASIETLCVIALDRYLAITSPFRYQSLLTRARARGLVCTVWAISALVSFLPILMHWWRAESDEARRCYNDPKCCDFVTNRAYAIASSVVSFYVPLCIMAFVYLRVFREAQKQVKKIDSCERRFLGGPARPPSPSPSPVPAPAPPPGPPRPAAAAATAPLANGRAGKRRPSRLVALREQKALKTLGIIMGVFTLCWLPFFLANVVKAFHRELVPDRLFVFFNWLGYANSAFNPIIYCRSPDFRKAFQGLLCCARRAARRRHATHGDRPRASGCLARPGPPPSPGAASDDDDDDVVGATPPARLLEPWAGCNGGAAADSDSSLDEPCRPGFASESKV
COc1ccccc1N1CCN(C(=O)C(C)CN)CC1 (stereo not drawn): 35.5%
COc1ccccc1OCC(O)CNC(C)C (stereo not drawn): 81.1%
COc1ccccc1N1CCN(CC[C@@H]2CC[C@H](O)[C@@H](C(=O)Nc3ccccc3)O2)CC1: 91.5%
COc1ccccc1N1CCN(CCN2C(=O)NC(C)(C)C2=O)CC1: 64.7%
CCC(CC)C(=O)NC[C@H]1O[C@@H](CC(=O)N2CCN(c3ccccc3OC)CC2)[C@H](O)[C@@H]1O: 36.6%
Clc1ccc2c(c1)N=C(N1CCNCC1)c1ccccc1N2: 73.8%
Nc1ncnc2c1ncn2[C@@H]1O[C@@H]2COP(=O)(O)O[C@H]2[C@H]1O: 91.7%
CC(C)NCC(O)c1ccc2ccccc2c1 (stereo not drawn): 97.5%

Study 2 — observed: enzyme activity; tested at: 5 µM; relative to: untreated control; endpoint: remaining activity
SMILES: O=C(Nc1cnn(-c2csc(C(=O)NC3COC3)c2)c1)Nc1ccccc1Cl
Dual specificity mitogen-activated protein kinase kinase 5 (MAP2K5, Homo sapiens, UniProt Q13163): 98%
ALK tyrosine kinase receptor (ALK, Homo sapiens, UniProt Q9UM73): 99.8%
G protein-coupled receptor kinase 5 (GRK5, Homo sapiens, UniProt P34947): 97.9%
Death-associated protein kinase 1 (DAPK1, Homo sapiens, UniProt P53355): 98.6%
Casein kinase I isoform alpha (CSNK1A1, Homo sapiens, UniProt P48729): 93.3%
MAP kinase-interacting serine/threonine-protein kinase 1 (MKNK1, Homo sapiens, UniProt Q9BUB5): 94.2%
Serine/threonine-protein kinase LATS1 (LATS1, Homo sapiens, UniProt O95835): 105%
Cyclin-dependent kinase 2, with cyclin E2 (CDK2, Homo sapiens, UniProt P24941): 102%
Rhodopsin kinase GRK1 (GRK1, Homo sapiens, UniProt Q15835): 91.8%
Myosin light chain kinase family member 4 (MYLK4, Homo sapiens, UniProt Q86YV6): 83.4%

Study 3 — observed: cell-free assay; technique: competition with immobilised ligand; tested at: 0.1 µM; endpoint: remaining binding
SMILES: CS(=O)(=O)N1CCCC(NC(=O)[C@H](CCC2CCCCC2)NC(=O)c2ccc(CNC(=O)c3cnc4ccccn34)cc2)C1 (stereo partly drawn)
Serine/threonine-protein kinase mTOR (MTOR, Homo sapiens, UniProt P42345): 100%
Serine/threonine-protein kinase LATS1 (LATS1, Homo sapiens, UniProt O95835): 98%
Serine/threonine-protein kinase Nek11 (NEK11, Homo sapiens, UniProt Q8NG66): 94%
Mitogen-activated protein kinase kinase kinase 1 (MAP3K1, Homo sapiens, UniProt Q13233): 100%
RAF proto-oncogene serine/threonine-protein kinase (RAF1, Homo sapiens, UniProt P04049): 61%
Vascular endothelial growth factor receptor 1 (FLT1, Homo sapiens, UniProt P17948): 100%
Platelet-derived growth factor receptor beta (PDGFRB, Homo sapiens, UniProt P09619): 100%
Cyclin-dependent kinase 4 (CDK4, Homo sapiens, UniProt P11802): 99%
Serine/threonine-protein kinase 33 (STK33, Homo sapiens, UniProt Q9BYT3): 100%
Mitotic checkpoint serine/threonine-protein kinase BUB1 (BUB1, Homo sapiens, UniProt O43683): 100%
LIM domain kinase 2 (LIMK2, Homo sapiens, UniProt P53671): 92%
Serine/threonine-protein kinase Nek2 (NEK2, Homo sapiens, UniProt P51955): 86%
Serine/threonine-protein kinase MRCK alpha (CDC42BPA, Homo sapiens, UniProt Q5VT25): 100%
Casein kinase I isoform gamma-2 (CSNK1G2, Homo sapiens, UniProt P78368): 70%
Tyrosine-protein kinase Lck (LCK, Homo sapiens, UniProt P06239): 83%
Cyclin-dependent kinase 13 (CDK13, Homo sapiens, UniProt Q14004): 61%
Calcium/calmodulin-dependent protein kinase type 1D (CAMK1D, Homo sapiens, UniProt Q8IU85): 88%
Serine/threonine-protein kinase 10 (STK10, Homo sapiens, UniProt O94804): 100%
Mast/stem cell growth factor receptor Kit (KIT, Homo sapiens, UniProt P10721, V559D): 49%
Cyclin-dependent kinase 11B (CDK11B, Homo sapiens, UniProt P21127): 94%
Receptor-type tyrosine-protein kinase FLT3 (FLT3, Homo sapiens, UniProt P36888, R834Q): 100%
Wee1-like protein kinase 2 (WEE2, Homo sapiens, UniProt P0C1S8): 97%

Study 4 — observed: enzyme activity; mode: inhibitor; tested at: 0.5 µM; relative to: control; endpoint: remaining activity
Target: Tyrosine-protein kinase SYK (SYK, Homo sapiens, UniProt P43405)
c1ccc(-c2n[nH]c3c2oc2ccccc23)cc1: 97.7%
CN(C)S(=O)(=O)c1ccc2c(c1)/C(=C/c1cc3c([nH]1)CCCC3)C(=O)N2: 77.7%
O=C1NC(=O)c2c1c1c3ccccc3[nH]c1c1[nH]c3cc(Br)ccc3c21: 58.3%
O=C1Nc2ccccc2/C1=C\c1c(Cl)[nH]c2ccccc12: 102%
O=C1Cc2c([nH]c3ccc(Br)cc23)-c2ccccc2N1: 81.5%
Cc1ccc(S(=O)(=O)/C=C/C#N)cc1: 105%
CCCCc1c(-c2ccc(OC)cc2)[nH]c2nccnc12: 47.5%
COc1cccc(-c2cc(=O)c3ccccc3o2)c1N: 97.2%
O=c1cc(N2CCOCC2)oc2c(-c3ccccc3)cccc12: 99.7%
CN1CCN(c2ccc3nc(-c4c(N)c5c(F)cccc5[nH]c4=O)[nH]c3c2)CC1: 65.4%
O=Nc1c(-c2c(O)[nH]c3cc(Br)ccc23)[nH]c2ccccc12: 45.7%

Some of these lines once more (study 3):
Serine/threonine-protein kinase mTOR (MTOR, Homo sapiens, UniProt P42345): 100%
Serine/threonine-protein kinase LATS1 (LATS1, Homo sapiens, UniProt O95835): 98%
Serine/threonine-protein kinase Nek11 (NEK11, Homo sapiens, UniProt Q8NG66): 94%
